Measurements from different studies.
Several values in a cell are separate wells, animals, samples, runs or records. ± marks the error that the study gave.
CA2: Carbonic anhydrase 2 (CA2, Homo sapiens, UniProt P00918)
Mitogen-activated protein kinase 14: Mitogen-activated protein kinase 14 (Rattus norvegicus, UniProt P70618)
UniProt P70618, sequence (whole entry, looked up): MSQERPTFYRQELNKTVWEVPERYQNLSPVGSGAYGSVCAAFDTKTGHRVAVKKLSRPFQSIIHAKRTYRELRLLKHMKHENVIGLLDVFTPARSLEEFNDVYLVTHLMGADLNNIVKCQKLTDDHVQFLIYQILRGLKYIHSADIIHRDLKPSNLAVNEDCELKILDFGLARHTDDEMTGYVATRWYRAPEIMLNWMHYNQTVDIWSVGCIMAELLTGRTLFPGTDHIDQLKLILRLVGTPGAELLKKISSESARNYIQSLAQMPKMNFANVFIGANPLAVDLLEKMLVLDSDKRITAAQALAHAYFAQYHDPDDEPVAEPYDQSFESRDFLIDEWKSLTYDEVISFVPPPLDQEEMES
BCHE: Cholinesterase (BCHE, Equus caballus, UniProt P81908)
UniProt P81908, sequence (whole entry, looked up): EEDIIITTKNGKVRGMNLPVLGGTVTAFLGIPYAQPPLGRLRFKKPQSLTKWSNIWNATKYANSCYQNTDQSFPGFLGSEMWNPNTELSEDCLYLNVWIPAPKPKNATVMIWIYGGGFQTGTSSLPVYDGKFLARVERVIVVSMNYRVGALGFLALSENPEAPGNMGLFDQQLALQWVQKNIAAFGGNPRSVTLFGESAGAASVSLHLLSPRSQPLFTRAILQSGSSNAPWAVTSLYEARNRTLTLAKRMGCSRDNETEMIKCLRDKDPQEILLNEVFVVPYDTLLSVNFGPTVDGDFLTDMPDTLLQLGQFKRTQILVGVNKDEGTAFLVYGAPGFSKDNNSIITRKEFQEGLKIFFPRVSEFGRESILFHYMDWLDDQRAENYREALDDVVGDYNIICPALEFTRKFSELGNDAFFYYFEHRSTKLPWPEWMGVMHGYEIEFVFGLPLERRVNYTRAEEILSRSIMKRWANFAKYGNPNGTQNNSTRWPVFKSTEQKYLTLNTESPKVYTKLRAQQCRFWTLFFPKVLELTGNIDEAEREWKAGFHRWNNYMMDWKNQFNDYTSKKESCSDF
CTSL: Procathepsin L (CTSL, Homo sapiens, UniProt P07711)
UniProt P07711, sequence (whole entry, looked up): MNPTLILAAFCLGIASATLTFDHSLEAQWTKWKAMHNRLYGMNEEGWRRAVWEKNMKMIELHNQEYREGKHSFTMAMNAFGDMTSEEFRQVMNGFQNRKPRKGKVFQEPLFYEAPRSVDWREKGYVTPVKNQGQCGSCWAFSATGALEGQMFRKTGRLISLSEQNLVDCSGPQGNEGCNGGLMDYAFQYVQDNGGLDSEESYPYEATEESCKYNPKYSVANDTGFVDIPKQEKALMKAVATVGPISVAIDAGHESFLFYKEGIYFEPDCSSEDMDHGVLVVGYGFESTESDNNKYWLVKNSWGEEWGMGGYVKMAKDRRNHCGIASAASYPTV
UniProt P32245, sequence (whole entry, looked up): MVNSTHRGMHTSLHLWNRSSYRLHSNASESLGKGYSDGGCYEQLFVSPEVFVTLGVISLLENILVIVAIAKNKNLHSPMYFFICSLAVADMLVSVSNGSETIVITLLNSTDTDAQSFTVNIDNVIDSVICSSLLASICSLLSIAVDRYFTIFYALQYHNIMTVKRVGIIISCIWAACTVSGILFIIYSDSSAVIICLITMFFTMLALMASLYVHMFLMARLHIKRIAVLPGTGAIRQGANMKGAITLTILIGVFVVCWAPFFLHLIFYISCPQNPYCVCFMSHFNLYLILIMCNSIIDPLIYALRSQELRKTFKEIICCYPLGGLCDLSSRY
UniProt P10613, sequence (whole entry, looked up): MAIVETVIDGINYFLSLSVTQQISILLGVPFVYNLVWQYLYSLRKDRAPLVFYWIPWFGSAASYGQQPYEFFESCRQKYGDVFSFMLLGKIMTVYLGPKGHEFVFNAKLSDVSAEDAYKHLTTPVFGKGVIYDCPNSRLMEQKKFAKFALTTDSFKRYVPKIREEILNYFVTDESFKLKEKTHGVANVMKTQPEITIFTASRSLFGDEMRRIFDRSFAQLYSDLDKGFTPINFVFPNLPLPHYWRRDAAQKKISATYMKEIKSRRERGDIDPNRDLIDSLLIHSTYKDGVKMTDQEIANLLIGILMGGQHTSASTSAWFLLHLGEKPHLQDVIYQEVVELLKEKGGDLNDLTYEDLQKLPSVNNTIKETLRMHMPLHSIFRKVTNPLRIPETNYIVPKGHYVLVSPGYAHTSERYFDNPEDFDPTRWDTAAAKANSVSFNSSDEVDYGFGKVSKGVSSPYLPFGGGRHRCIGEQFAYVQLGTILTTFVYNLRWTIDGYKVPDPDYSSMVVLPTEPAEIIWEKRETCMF
UniProt P09668, sequence (whole entry, looked up): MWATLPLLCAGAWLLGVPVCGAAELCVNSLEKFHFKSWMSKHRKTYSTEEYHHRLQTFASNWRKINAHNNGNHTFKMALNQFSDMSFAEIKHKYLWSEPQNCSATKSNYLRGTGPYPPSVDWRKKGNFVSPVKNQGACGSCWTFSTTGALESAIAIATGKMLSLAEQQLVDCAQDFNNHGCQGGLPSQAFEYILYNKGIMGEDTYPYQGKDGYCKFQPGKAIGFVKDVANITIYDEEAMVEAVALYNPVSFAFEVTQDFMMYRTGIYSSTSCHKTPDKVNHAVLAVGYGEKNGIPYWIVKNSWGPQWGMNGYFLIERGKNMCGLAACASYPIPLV
UniProt P14618, sequence (whole entry, looked up): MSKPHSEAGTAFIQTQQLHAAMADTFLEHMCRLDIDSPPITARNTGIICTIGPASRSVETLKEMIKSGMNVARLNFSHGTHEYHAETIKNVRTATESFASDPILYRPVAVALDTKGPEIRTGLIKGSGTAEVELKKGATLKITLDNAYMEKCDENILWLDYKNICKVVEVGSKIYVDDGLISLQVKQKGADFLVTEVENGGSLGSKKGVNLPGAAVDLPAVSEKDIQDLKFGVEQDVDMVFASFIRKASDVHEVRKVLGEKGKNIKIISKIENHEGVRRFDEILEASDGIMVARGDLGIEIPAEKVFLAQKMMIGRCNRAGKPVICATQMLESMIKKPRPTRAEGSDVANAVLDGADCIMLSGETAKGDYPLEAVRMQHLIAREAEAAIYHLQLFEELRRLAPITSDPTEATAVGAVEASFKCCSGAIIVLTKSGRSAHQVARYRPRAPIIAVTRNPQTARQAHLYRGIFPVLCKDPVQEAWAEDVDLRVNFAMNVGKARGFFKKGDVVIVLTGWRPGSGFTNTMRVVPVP
UniProt P25084, sequence (whole entry, looked up): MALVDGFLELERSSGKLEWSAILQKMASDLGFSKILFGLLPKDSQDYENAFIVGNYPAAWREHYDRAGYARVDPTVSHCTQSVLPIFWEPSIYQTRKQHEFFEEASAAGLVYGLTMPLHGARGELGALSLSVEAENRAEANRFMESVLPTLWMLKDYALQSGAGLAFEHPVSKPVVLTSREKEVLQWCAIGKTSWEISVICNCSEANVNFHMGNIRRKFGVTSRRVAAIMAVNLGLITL
UniProt Q9HC52, sequence (whole entry, looked up): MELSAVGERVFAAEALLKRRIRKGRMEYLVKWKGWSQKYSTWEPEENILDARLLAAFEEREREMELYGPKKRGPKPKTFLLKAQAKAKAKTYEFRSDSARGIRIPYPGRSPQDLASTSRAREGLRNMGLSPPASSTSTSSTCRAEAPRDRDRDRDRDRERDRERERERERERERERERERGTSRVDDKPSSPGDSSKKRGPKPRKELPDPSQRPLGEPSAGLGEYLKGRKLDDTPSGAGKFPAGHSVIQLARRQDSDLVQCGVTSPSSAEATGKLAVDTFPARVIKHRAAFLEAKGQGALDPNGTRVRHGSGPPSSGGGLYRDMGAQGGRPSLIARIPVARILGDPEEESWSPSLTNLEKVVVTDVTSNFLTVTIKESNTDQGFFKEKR
UniProt Q14790, sequence (whole entry, looked up): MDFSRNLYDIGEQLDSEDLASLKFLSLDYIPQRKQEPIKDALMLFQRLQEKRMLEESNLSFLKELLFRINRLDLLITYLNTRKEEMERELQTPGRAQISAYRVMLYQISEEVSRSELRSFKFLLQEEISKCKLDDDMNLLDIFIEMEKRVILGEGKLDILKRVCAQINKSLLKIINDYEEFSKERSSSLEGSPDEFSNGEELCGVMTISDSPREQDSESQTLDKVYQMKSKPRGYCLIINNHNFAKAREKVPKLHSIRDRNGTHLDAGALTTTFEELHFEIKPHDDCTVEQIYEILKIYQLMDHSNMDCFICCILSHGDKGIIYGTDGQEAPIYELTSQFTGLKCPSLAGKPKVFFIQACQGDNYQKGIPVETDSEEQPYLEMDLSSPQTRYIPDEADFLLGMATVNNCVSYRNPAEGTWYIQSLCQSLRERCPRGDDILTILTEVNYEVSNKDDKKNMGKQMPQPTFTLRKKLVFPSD

SMILES | target | assay | system | setting | IC50
CC(C)C[C@H](NC(=O)[C@H]1O[C@@H]1C(=O)O)C(=O)NCCCCN=C(N)N | Pro-cathepsin H (Homo sapiens, UniProt P09668) | enzyme activity, inhibitor | – | – | 0.0434 µM
COC1c2cc(C(C)C)c(O)c(O)c2C23CCCC(C)(C)C2C1OC3=O (centres unmarked) | CA2 | enzyme activity, inhibitor | – | – | 0.00481 µM
CC[C@H](C)[C@H](NC(=O)[C@H](CC(C)C)NC(=O)[C@@H]1CCCN1C(=O)[C@H](CCC(=O)O)NC(=O)[C@@H]1CCCN1C(=O)[C@H](CCCNC(=N)N)NC(=O)[C@@H]1CCCN1C(=O)[C@H](CCCNC(=N)N)NC(=O)[C@H](CCC(N)=O)NC(=O)[C@H](CCCCN)NC(=O)[C@@H]1CCCN1C(=O)[C@H](C)NC(=O)[C@@H](N)Cc1ccc(O)cc1)C(=O)N[C@H](C(=O)N[C@@H](C)C(=O)N[C@H](C(=O)O)[C@@H](C)O)[C@@H](C)CC | Mitogen-activated protein kinase 14 | enzyme activity, inhibitor, fluorescence | – | pH 7.4 | 179 µM
COC(=O)CNC(=O)[C@H](CC(C)C)NC(=O)[C@@H](Cc1ccc(O)cc1OC)NC(=O)[C@H](CO)NC(=O)[C@@H](NC(=O)[C@H](CC(C)C)NC(=O)[C@@H](Cc1ccc(O)cc1)NC(=O)[C@H](Cc1ccc(O)cc1)NC(=O)NC(=O)O)[C@@H](O)C(=O)O | PTPN11 (Homo sapiens, UniProt Q06124, E76K) | phosphatase activity, inhibitor, fluorescence | – | 0.5 nM enzyme, together with: DiFMUP 100 µM | 45.6 µM
CCN(C)C(=O)Oc1ccc(/C=C/C(=O)N2CCc3ccccc3C2)cc1OC | BCHE | enzyme activity, inhibitor, Ellman | – | – | 1.3 µM
CC(C)C[C@H](NC(=O)[C@H](CCCCN)NC(=O)[C@H](CC(C)C)NC(=O)[C@H](CCCCN)NC(=O)[C@H](CCCNC(=N)N)NC(=O)[C@@H]1CCCN1C(=O)[C@H](CCCNC(=N)N)NC(=O)CNC(=O)[C@H](CCCNC(=N)N)NC(=O)[C@H](CCCCN)NC(=O)CNC(=O)[C@@H]1CCCN1C(=O)[C@H](C)NC(=O)[C@@H](N)Cc1ccc(O)cc1)C(=O)N[C@@H](CS)C(=O)N[C@@H](CCCCN)C(=O)O | Mitogen-activated protein kinase 14 | enzyme activity, inhibitor, fluorescence | – | pH 7.4 | 0.06 µM
CC(C)CN(CCCC[C@H](NC(=O)[C@H](CCCN1CCOCC1)NC(=O)[C@@H](NC(=O)[C@H](Cc1ccccc1)NC(=O)c1ccc(C(C)(C)C)cc1)C(C)C)C(=O)N[C@@H](CO)C(N)=O)C1CC2CCC1C2 (some centres unmarked) | Chromobox protein homolog 8 (Homo sapiens, UniProt Q9HC52) | ligand displacement, TR-FRET | – | – | 0.086 µM
CNc1nc(N[C@@H](CCO)c2ccccc2Cl)nc(N2CCN(C(=O)CCl)C(C(=O)NCC3CCNC3=O)C2)n1 (some centres unmarked) | CTSL | enzyme activity, inhibitor | – | – | > 50 µM
O=C(O)CCn1c(=O)oc2cc(Cl)c(Cl)cc21 | HTR2A (Homo sapiens, UniProt P28223) | antagonist | – | median value | > 25.1 µM
CC(C)NCCN1C(=O)CSC1c1ccc(F)cc1 (centres unmarked) | uncharacterized protein (Apis mellifera, UniProt A0A7M6W5G5) | enzyme activity, inhibitor, Ellman | – | together with: 1 mM acetylthiocholine | > 1000 µM
CCN(CC)S(=O)(=O)c1ccc2nnn(OCc3ccc(C#N)cc3)c2c1 | CTSL | enzyme activity, inhibitor, FRET | – | – | > 100 µM
CC(C)C[C@H](NC(=O)[C@H](CS)NC(=O)[C@H](C)N)C(=O)N1CCC[C@H]1C(=O)N[C@@H](Cc1ccccc1)C(=O)N[C@@H](Cc1ccc(O)cc1)C(=O)N[C@@H](CO)C(=O)N[C@@H](CCCNC(=N)N)C(=O)N[C@@H](CS)C(N)=O | Pyruvate kinase PKM (PKM, Homo sapiens, UniProt P14618) | enzyme activity, inhibitor, fluorometric | – | 2 h, 37 °C, enzyme 500 nM | 709 µM
CC[C@H](C)[C@H](NC(=O)[C@H](CC(C)C)NC(=O)[C@H](CCCCN)NC(=O)[C@H](CCC(=O)O)NC(=O)[C@H](CCCCN)NC(=O)[C@H](CCCNC(=N)N)NC(=O)[C@@H]1CCCN1C(=O)[C@H](CCCNC(=N)N)NC(=O)[C@H](CCC(N)=O)NC(=O)[C@H](CCCCN)NC(=O)[C@@H]1CCCN1C(=O)[C@H](C)NC(=O)[C@@H](N)Cc1ccc(O)cc1)C(=O)N[C@H](C(=O)N1CCC[C@H]1C(=O)N[C@H](C(=O)O)[C@@H](C)O)[C@@H](C)CC | Mitogen-activated protein kinase 14 | enzyme activity, inhibitor, fluorescence | – | pH 7.4 | 41 µM
CNC(=O)C[C@H](Cc1ccc(F)cc1)NC(=O)[C@@H](Cc1ccc(Cl)cc1Cl)NC(=O)[C@H](N)Cc1ccccc1C#N | Caspase-8 (CASP8, Homo sapiens, UniProt Q14790) | enzyme activity, inhibitor | – | – | > 10 µM
CCC1c2ccsc2CCN1C(=O)c1nnn(C2CCNCC2)c1C (racemic) | CTSL | enzyme activity, inhibitor, FRET | – | – | > 100 µM
O=C(Nc1cccnc1)c1cccs1 | NAMPT (Homo sapiens, UniProt P43490) | enzyme activity, inhibitor, fluorescence | – | – | 27 µM

SMILES | target | assay | system | setting | IC50
O=S(=O)(N/N=C/c1ccc(OS(=O)(=O)c2ccccc2)cc1)c1cc(Cl)ccc1Cl | CA2 | enzyme activity, inhibitor, absorbance | – | – | 0.0488 µM
COc1ccccc1NC(=S)NCCN(C)C | uncharacterized protein (Apis mellifera, UniProt A0A7M6W5G5) | enzyme activity, inhibitor, Ellman | – | pH 7.4, 30 °C, together with: 1 mM acetylthiocholine | 13 µM
CCOC(=O)c1ccccc1-c1c2ccc(=O)cc-2oc2cc(OCCCn3nnnc3C(NCc3ccccc3)c3ccc(Br)cc3)ccc12 (centres unmarked) | ALOX15 (Homo sapiens, UniProt P16050) | enzyme activity, inhibitor, absorbance | – | – | 54.8 µM
O=C(O)C(/C=C/c1c(Cl)cccc1Cl)=N\Nc1nc(-c2ccccc2)cs1 | BCHE | enzyme activity, inhibitor | – | – | 9.14 µM
O=C(CCc1ccc(Br)cc1)N[C@H]1CCOC1=O | lasR (Pseudomonas aeruginosa, UniProt P25084) | reporter gene, antagonist | PAO-JP2 | together with: OdDHL 100 nM | 7.6 µM
COC(=O)c1ccc(COC(CN2CCN(C(=O)NCc3ccc(OC)cc3)CC2)c2ccc(Cl)cc2)cc1 (centres unmarked) | ERG11 (Candida albicans, UniProt P10613) | enzyme activity, inhibitor, mass spectrometry | – | – | 1.79 µM
CC[C@H](C)[C@H](NC(=O)[C@H](CCCCN)NC(=O)[C@H](CC(C)C)NC(=O)[C@H](C)NC(=O)[C@H](C)NC(=O)[C@H](C)NC(=O)[C@H](CCCCN)NC(=O)[C@@H](NC(=O)[C@H](CCCCN)NC(=O)[C@H](CC(N)=O)NC(=O)[C@H](CCCCN)NC(=O)[C@@H](NC(=O)[C@H](C)NC(=O)[C@@H](N)Cc1ccc(O)cc1)[C@@H](C)O)C(C)C)C(=O)N[C@H](C(=O)N[C@@H](CCCNC(=N)N)C(=O)O)[C@@H](C)CC | Mitogen-activated protein kinase 14 | enzyme activity, inhibitor, fluorescence | – | pH 7.4 | 130 µM
CC[C@H](C)[C@H](N)C(=O)N[C@@H](CCCNC(=N)N)C(=O)N[C@@H](CCC(N)=O)C(=O)N[C@@H](CCC(=O)O)C(=O)N[C@@H](CCC(=O)O)C(=O)N[C@H](C(=O)N[C@@H](CCC(N)=O)C(=O)N[C@@H](CCC(=O)O)C(=O)N[C@@H](CC(C)C)C(=O)O)C(C)C | HLA class I histocompatibility antigen, B alpha chain (Homo sapiens, UniProt P01889) | peptide-MHC binding, radioligand competition binding | – | – | > 70 µM
CC[C@H](C)[C@H](NC(=O)[C@@H](NC(=O)[C@H](CCC(=O)O)NC(=O)[C@H](CCSC)NC(=O)[C@H](CCC(N)=O)NC(=O)[C@H](CCCNC(=N)N)NC(=O)[C@H](CCCNC(=N)N)NC(=O)[C@H](CC(N)=O)NC(=O)[C@H](CCCNC(=N)N)NC(=O)[C@H](CC(C)C)NC(=O)[C@H](C)NC(=O)[C@@H](N)Cc1ccc(O)cc1)C(C)C)C(=O)N[C@@H](CO)C(=O)N[C@@H](CC(C)C)C(=O)N[C@@H](CCCNC(=N)N)C(=O)N[C@@H](CC(C)C)C(=O)O | Mitogen-activated protein kinase 14 | enzyme activity, inhibitor, fluorescence | – | pH 7.4 | 49 µM
COc1ccccc1C1SCC(=O)N1CCCN(C)C (centres unmarked) | uncharacterized protein (Anopheles gambiae, UniProt Q7QFG0) | enzyme activity, inhibitor, Ellman | – | together with: 1 mM acetylthiocholine | 46 µM
CC[C@H](C)[C@H](NC(=O)[C@H](CC(C)C)NC(=O)[C@@H]1CCCN1C(=O)[C@H](CCCNC(=N)N)NC(=O)[C@@H]1CCCN1C(=O)[C@H](CCCCN)NC(=O)[C@H](Cc1c[nH]cn1)NC(=O)[C@H](CCCNC(=N)N)NC(=O)[C@H](Cc1ccccc1)NC(=O)[C@H](CCCCN)NC(=O)[C@H](CCCCN)NC(=O)[C@H](C)NC(=O)[C@@H](N)Cc1ccc(O)cc1)C(=O)N[C@@H](CC(C)C)C(=O)N1CCC[C@H]1C(=O)N1CCC[C@H]1C(=O)O | Mitogen-activated protein kinase 14 | enzyme activity, inhibitor, fluorescence | – | pH 7.4 | 5.01 µM
Cc1ccc(N2CC3CC(C2)N3C)cc1C(=O)NC1(c2ccc3c4c(cccc24)C(=O)N3C)CC1 | KCNH2 (Homo sapiens, UniProt Q12809) | enzyme activity, inhibitor | – | – | 3.9 µM
CC[C@H](C)[C@H](NC(=O)[C@H](CCCCN)NC(=O)[C@H](CC(C)C)NC(=O)[C@H](CCCCN)NC(=O)[C@H](CC(C)C)NC(=O)[C@H](CCCCN)NC(=O)[C@@H]1CCCN1C(=O)[C@H](CCCCN)NC(=O)[C@H](CO)NC(=O)[C@H](CCCNC(=N)N)NC(=O)[C@H](CCCCN)NC(=O)[C@H](CCCNC(=N)N)NC(=O)[C@H](C)NC(=O)[C@@H](N)Cc1ccc(O)cc1)C(=O)N[C@H](C(=O)N[C@@H](CC(N)=O)C(=O)O)[C@@H](C)CC | Mitogen-activated protein kinase 14 | enzyme activity, inhibitor, fluorescence | – | pH 7.4 | 0.054 µM
CCCC[C@H](NC(=O)[C@@H](NC(=O)[C@@H](N)Cc1ccc(O)cc1)C(C)C)C(=O)NCC(=O)N[C@@H](Cc1c[nH]cn1)C(=O)N[C@H](Cc1ccc2ccccc2c1)C(=O)N[C@@H](CCCNC(=N)N)C(=O)N[C@H](Cc1c[nH]c2ccccc12)C(=O)N[C@@H](CC(=O)O)C(=O)N[C@@H](CCCNC(=N)N)C(=O)N[C@@H](Cc1ccccc1)C(=O)NCC(=O)O | MC4R (Homo sapiens, UniProt P32245) | antagonist, split-luciferase cAMP sensor | – | 12 min, together with: 70 nM α-MSH (EC90) | 0.0637 µM and 0.0603 µM
CCN(CC)S(=O)(=O)c1ccc2nnn(OCc3cc(-c4ccccc4OC)no3)c2c1 | CTSL | enzyme activity, inhibitor, FRET | – | – | > 100 µM
Nc1ccn(C2OC(COP(=O)(O)OP(=O)(O)OP(=O)(O)O)C(O)C2(F)F)c(=O)n1 (centres unmarked) | pyrG (Escherichia coli, UniProt P0A7E5, C268A) | enzyme activity | – | together with: 6.0 mM glutamine, 1.0 mM ATP, 0.05 mM UTP | 3.2 ± 0.1 µM
